Assay results pooled from the literature.
Numbered parts are unrelated; each lists some results of a single study.

Series 1
Target: RNA binding protein fox-1 homolog 2, RRM domain, GST-SBP tag (RBFOX2, Homo sapiens, UniProt O43251-10, residues 100-194)
Method: RNA Bind-n-Seq
Molecule type: RNA
Medium: in vitro
Concentration: 365 nM
Notes: natural RNA segment, single round, ends assumed
Relative to: no-protein control
Reading: higher = stronger binding
Oligonucleotide	RBNS enrichment (R)
GGGAGUUCUACAGUCCGACGAUCCCCUAGCCCCCCUUGCCCCUUAUUUCUUCCCUGCUUCCCUCGAACCCAGAGAUUUUUGAGGGAUGAACGGGUAGACAAGGACUGAGAUUGCCUCUGACUUCCUCCUCCCCUGGAAUUCUCGGGUGCCAA	0.746
GGGAGUUCUACAGUCCGACGAUCUUCUCUAAAAGUGUUGAAUGAUACAGCCAUUGCACUGAAGUUUGAGCUGUGUGCGUGUGAAUUUAUACUGUUUCAAAAAUUUCAAAUGCAUGGUAGCAUGUAGAAAGGUUUGGAAUUCUCGGGUGCCAA	4.66
GGGAGUUCUACAGUCCGACGAUCCAAAACUGUAGUUCCCAAAAGAAGAUGUGUCAGGGCAAGCAGAAAGGGAAGUUUAGGCCAGAAUGUGGCCAUCCCAGAAACUGAGGCCUCUCUCAGCCUCACCAGUGACAUGGAAUUCUCGGGUGCCAA	1.64
GGGAGUUCUACAGUCCGACGAUCGGAGGCAGCAAGCAAGGACAUCCUCCAGUGGUUUCCUGGAGCCACCGGCUCACUGUCUGCAGCACCUUCUCUUUCUUUCUCAUGCAUUUCAAAGCCAGCUAUCUCCUGCAUGGAAUUCUCGGGUGCCAA	1.31

Series 2
Target: Interferon regulatory factor 5, full length, phosphomimetic (IRF5, Homo sapiens, UniProt Q13568-2, residues 1-514, K96S/S451D/S453D/S456D/S462D)
Method: protein-binding microarray
Molecule type: double-stranded DNA, one strand shown
Medium: in vitro
Concentration: 250 nM
Notes: 60-bp whole probe
With: salmon DNA 0.4 mg/ml
Relative to: random background probes
Reading: higher = stronger binding
Oligonucleotide	log fluorescence [z-score]
GCCTAGCACTTAGGTATCCGTATCCTTTAGTGCTAGGTCTTGATTCGCTTGACGCTGCTG	0.279
GCCTAGCACTTCGGACTGGGTATCGGTTAGTGCTAGGTCTTGATTCGCTTGACGCTGCTG	4.62
GCCTAGCACTTAGGTTTCCTACTGCTATAGTGCTAGGTCTTGATTCGCTTGACGCTGCTG	0.382
GCCTAGCACTTAGGTTTCGGGTTTCGGTTAGTGCTAGTCTTGATTCGCTTGACGCTGCTG	10

Series 3
Target: Histone acetyltransferase KAT6A, winged helix 2, GST fusion (KAT6A, Homo sapiens, UniProt Q92794, residues 85-181)
Method: protein binding microarray
Molecule type: double-stranded DNA, one strand shown
Medium: in vitro
Concentration: not given
Notes: 8-mer, flanks averaged, mean of 2 arrays, mostly near background
Relative to: not given
Reading: higher = stronger binding
Target sequence (chain): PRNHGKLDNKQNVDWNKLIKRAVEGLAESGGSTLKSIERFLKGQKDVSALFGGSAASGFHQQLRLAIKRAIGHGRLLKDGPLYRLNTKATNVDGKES
Oligonucleotide	E-score
CCTTTCCA	-0.0159
ACACATGC	-0.151
AGCGCACG	-0.0109
ATACTGTA	-0.174
GATAACAC	-0.152

Other studies, line by line
Substance	target	assay	system	setting	how to read	measurement	value
PhoQ, residues 284 288 289 292 302 303 SCEHLI	PhoP, residues 12 14 15 18 19 LHATL (Escherichia coli, UniProt P23836)	Sort-seq, item: YFP reporter	E. coli	PhoQ-PhoP variant library, with: 10 µM Mg2+	relative to: high Mg2+ state, higher = stronger signaling	fold induction	18.2

A few entries again (series 1):
Oligonucleotide	RBNS enrichment (R)
GGGAGUUCUACAGUCCGACGAUCCAAAACUGUAGUUCCCAAAAGAAGAUGUGUCAGGGCAAGCAGAAAGGGAAGUUUAGGCCAGAAUGUGGCCAUCCCAGAAACUGAGGCCUCUCUCAGCCUCACCAGUGACAUGGAAUUCUCGGGUGCCAA	1.64
GGGAGUUCUACAGUCCGACGAUCUUCUCUAAAAGUGUUGAAUGAUACAGCCAUUGCACUGAAGUUUGAGCUGUGUGCGUGUGAAUUUAUACUGUUUCAAAAAUUUCAAAUGCAUGGUAGCAUGUAGAAAGGUUUGGAAUUCUCGGGUGCCAA	4.66
